Published values of several laboratories.
Protocols differ between the studies behind these lines. Numbers after ± are the reported error.

| Molecule | assay | test system | setting | trough concentration |
| --- | --- | --- | --- | --- |
| C=C(C)[C@@H]1CC[C@]2(NCCN3CCS(=O)(=O)CC3)CC[C@]3(C)[C@H](CC[C@@H]4[C@@]5(C)CC=C(C6=CC[C@@](CF)(C(=O)O)CC6)C(C)(C)[C@@H]5CC[C@]43C)[C@@H]12 | LC-MS/MS | HIV-1-infected treatment-naive adults, plasma | oral, 40 mg once daily, day 7, monotherapy | 220 ng/mL |
| CN1CC[C@@H](NC(=O)Nc2ccc(C#N)cc2)C[C@@H]1c1nc2ccccc2[nH]1 |  | Japanese patients, plasma | oral, 25 mg once daily, cycle 1 day 21, geometric mean | 88 ng/mL |
| C[C@@H](Oc1ccc(S(C)(=O)=O)cc1C(=O)N1C[C@@H]2C[C@]2(c2cc(C(F)(F)F)on2)C1)C(F)(F)F |  | human male, CSF | oral, 5 mg once daily, 312 h | 5.6 nM |
| COc1cc(Nc2ncc3c(n2)-c2ccc(Cl)cc2C(c2c(F)cccc2OC)=NC3)ccc1C(=O)O |  | children without grade ≥2 toxicity, plasma | oral, 80 mg/m2, day 4, mean | 1580 ± 350 nM |
| C[C@@H](c1ncncc1F)[C@](O)(Cn1cncn1)c1ccc(F)cc1F |  | patients, hematological disorders, CYP2C19 intermediate metabolizers, plasma | 200 mg, 12 h, steady state, median | 3040 ng/mL |
| O=C(Nc1c(Cl)cncc1Cl)c1ccc(OC(F)F)c(OCC2CC2)c1 |  | human, age ≥18 years, plasma | topical, 0.3% cream, 8 weeks | 1.78 ng/mL |
| teicoplanin |  | human, standard regimen, serum | intravenous, 400 mg q12h loading, 200 mg/day, day 4 | 12000 ± 3760 ng/mL |
| COc1c(C)c2c(c(O)c1C/C=C(\C)CCC(=O)O)C(=O)OC2 |  | stable kidney transplant recipients, plasma | oral, dose not given, 12 h post-dose, steady state | 3000 ± 2070 ng/mL |
